Results gathered from unrelated publications.
Protocols differ between the studies behind these lines.
B1: Arc (Rattus norvegicus, UniProt Q63053); sequence looked up; chain MELDHMTTGGLHAYPAPRGGPAAKPNVILQIGKCRAEMLEHVRRTHRHLLTEVSKQVERELKGLHRSVGKLENNLDGYVPTGDSQRWKKSIKACLCRCQETIANLERWVKREMHVWREVFYRLERWADRLESMGGKYPVGSEPARHTVSVGVGGPEPYCQEADGYDYTVSPYAITPPPAAGELPEQESVGAQQYQSWVPGEDGQPSPGVDTQIFEDPREFLSHLEEYLRQVGGSEEYWLSQIQNHMNGPAKKWWEFKQGSVKNWVEFKKEFLQYSEGTLSREAIQRELDLPQKQGEPLDQFLWRKRDLYQTLYVDAEEEEIIQYVVGTLQPKFKRFLRHPLPKTLEQLIQRGMEVQDGLEQAAEPSVTPLPTEDETEALTPALTSESVASDRTQPE
B2: gld-3 860-949 (Caenorhabditis elegans, UniProt Q95ZK7); sequence looked up; chain NGVTKTILEPRARVEKDYGKISLEHKTKYSNEYGDEEKSAENDTSSLGSRQYRIDPMKLIASVRESSEQLPRIHERQFSDVLNEKEKEIA
B3: TIM9 1-87 (Saccharomyces cerevisiae, UniProt O74700); chain MDALNSKEQQEFQKVVEQKQMKDFMRLYSNLVERCFTDCVNDFTTSKLTNKEQTCIMKCSEKFLKHSERVGQRFQEQNAALGQGLGR
B4: Pri1 (Saccharomyces cerevisiae, UniProt P10363); sequence looked up; chain MTNSVKTNGPSSSDMEYYYKSLYPFKHIFNWLNHSPKPSRDMINREFAMAFRSGAYKRYNSFNSVQDFKAQIEKANPDRFEIGAIYNKPPRERDTLLKSELKALEKELVFDIDMDDYDAFRTCCSGAQVCSKCWKFISLAMKITNTALREDFGYKDFIWVFSGRRGAHCWVSDKRARALTDVQRRNVLDYVNVIRDRNTDKRLALKRPYHPHLARSLEQLKPFFVSIMLEEQNPWEDDQHAIQTLLPALYDKQLIDSLKKYWLDNPRRSSKEKWNDIDQIATSLFKGPKQDSHIIKLRECKEDLVLMTLYPKLDVEVTKQTIHLLKAPFCIHPATGNVCVPIDESFAPEKAPKLIDLQTEMEKNNDVSLTALQPFINQFQAYVSSLLKNELGSVKREREDDDEPASLDF
B5: TFAM 43-245 (Homo sapiens, UniProt Q00059); sequence looked up; chain SSVLASCPKKPVSSYLRFSKEQLPIFKAQNPDAKTTELIRRIAQRWRELPDSKKKIYQDAYRAEWQVYKEEISRFKEQLTPSQIMSLEKEIMDKHLKRKAMTKKKELTLLGKPKRPRSAYNVYVAERFQEAKGDSPQEKLKTVKENWKNLSDSEKELYIQHAKEDETRYHNEMKSWEEQMIEVGRKDLLRRTIKKQRKYGAEE
B6: PSMG4 1-123 (Homo sapiens, UniProt Q5JS54); chain MEGLVVAAGGDVSLHNFSARLWEQLVHFHVMRLTDSLFLWVGATPHLRNLAVAMCSRYDSIPVSTSLLGDTSDTTSTGLAQRLARKTNKQVFVSYNLQNTDSNFALLVENRIKEEMEAFPEKF
B7: MDM4 23-111, p53-binding domain (Homo sapiens, UniProt O15151); chain GPLGSQINQVRPKLPLLKILHAAGAQGEMFTVKEVMHYLGQYIMVKQLYDQQEQHMVYCGGDLLGELLGRQSFSVKDPSPLYDMLRKNLVTLAT
B8: KAT7 364-473 (Homo sapiens, UniProt O95251); sequence looked up; chain RLYMCEFCLKYMKSQTILRRHMAKCVWKHPPGDEIYRKGSISVFEVDGKKNKIYCQNLCLLAKLFLDHKTLYYDVEPFLFYVMTEADNTGCHLIGYFSKEKNSFLNYNVS
B9: CCDC32 L78A/L81A/K83A/K84A (Mus musculus, UniProt Q8BS39); chain MKMFESLDSSATKSGRDLWAEICSCLPSPAQEDVSDNAFSDSFMDSHPAGESHTAAADSAVQPAGKPWAPLHDSEVYAASAEAALRRIKGLNEEVTSKDMLRTLAQAKKECWDRFLQEKLASEFFVDGLDSDERTLEHFKRWLQPDKVAISTEEVQFLIPPESQAEKPEAGDKPAAAEQ
B10: ranibizumab Fab; V domains shown; VH EVQLVESGGGLVQPGGSLRLSCAASGYDFTHYGMNWVRQAPGKGLEWVGWINTYTGEPTYAADFKRRFTFSLDTSKSTAYLQMNSLRAEDTAVYYCAKYPYYYGTSHWYFDVWGQGTLVTVSS; VL DIQLTQSPSSLSASVGDRVTITCSASQDISNYLNWYQQKPGKAPKVLIYFTSSLHSGVPSRFSGSGSGTDFTLTISSLQPEDFATYYCQQYSTVPWTFGQGTKVEIK
B11: NUP60 200-318 (Saccharomyces cerevisiae, UniProt P39705); sequence looked up; chain SMNTTLGSIGSRKYSFNYSSLPSPYKTTVYRYSAAKKIPDTYTANTSAQSIASAKSVRSGVSKSAPSKKISNTAAALVSLLDENDSKKNNAASELANPYSSYVSQIRKHKRVSPNAAPR
B12: PBXIP1 443-561 (Homo sapiens, UniProt Q96AQ6); chain LENWGQDPGVSANASKAWHQKSHFQNSREWSGKEKWWDGQRDRKAEHWKHKKEESGRERKKNWGGQEDREPAGRWKEGRPRVEESGSKKEGKRQGPKEPPRKSGSFHSSGEKQKQPRWR
B13: lpxC 1-305 (Escherichia coli, UniProt P0A725); chain MIKQRTLKRIVQATGVGLHTGKKVTLTLRPAPANTGVIYRRTDLNPPVDFPADAKSVRDTMLCTCLVNEHDVRISTVEHLNAALAGLGIDNIVIEVNAPEIPIMDGSAAPFVYLLLDAGIDELNCAKKFVRIKETVRVEDGDKWAEFKPYNGFSLDFTIDFNHPAIDSSNQRYAMNFSADAFMRQISRARTFGFMRDIEYLQSRGLCLGGSFDCAIVVDDYRVLNEDGLRFEDEFVRHKMLDAIGDLFMCGHNIIGAFTAYKSGHALNNKLLQAVLAKQEAWEYVTFQDDAELPLAFKAPSAVLA
B14: SNAPC3 (Homo sapiens, UniProt Q92966); chain MAEGSRGGPTCSGVGGRQDPVSGSGGCNFPEYELPELNTRAFHVGAFGELWRGRLRGAGDLSLREPPASALPGSQAADSDREDAAVARDLDCSLEAAAELRAVCGLDKLKCLEDGEDPEVIPENTDLVTLGVRKRFLEHREETITIDRACRQETFVYEMESHAIGKKPENSADMIEEGELILSVNILYPVIFHKHKEHKPYQTMLVLGSQKLTQLRDSIRCVSDLQIGGEFSNTPDQAPEHISKDLYKSAFFYFEGTFYNDKRYPECRDLSRTIIEWSESHDRGYGKFQTARMEDFTFNDLCIKLGFPYLYCHQGDCEHVIVITDIRLVHHDDCLDRTLYPLLIKKHWLWTRKCFVCKMYTARWVTNNDSFAPEDPCFFCDVCFRMLHYDSEGNKLGEFLAYPYVDPGTFN
Chain of UniProt P13382 (whole entry, looked up): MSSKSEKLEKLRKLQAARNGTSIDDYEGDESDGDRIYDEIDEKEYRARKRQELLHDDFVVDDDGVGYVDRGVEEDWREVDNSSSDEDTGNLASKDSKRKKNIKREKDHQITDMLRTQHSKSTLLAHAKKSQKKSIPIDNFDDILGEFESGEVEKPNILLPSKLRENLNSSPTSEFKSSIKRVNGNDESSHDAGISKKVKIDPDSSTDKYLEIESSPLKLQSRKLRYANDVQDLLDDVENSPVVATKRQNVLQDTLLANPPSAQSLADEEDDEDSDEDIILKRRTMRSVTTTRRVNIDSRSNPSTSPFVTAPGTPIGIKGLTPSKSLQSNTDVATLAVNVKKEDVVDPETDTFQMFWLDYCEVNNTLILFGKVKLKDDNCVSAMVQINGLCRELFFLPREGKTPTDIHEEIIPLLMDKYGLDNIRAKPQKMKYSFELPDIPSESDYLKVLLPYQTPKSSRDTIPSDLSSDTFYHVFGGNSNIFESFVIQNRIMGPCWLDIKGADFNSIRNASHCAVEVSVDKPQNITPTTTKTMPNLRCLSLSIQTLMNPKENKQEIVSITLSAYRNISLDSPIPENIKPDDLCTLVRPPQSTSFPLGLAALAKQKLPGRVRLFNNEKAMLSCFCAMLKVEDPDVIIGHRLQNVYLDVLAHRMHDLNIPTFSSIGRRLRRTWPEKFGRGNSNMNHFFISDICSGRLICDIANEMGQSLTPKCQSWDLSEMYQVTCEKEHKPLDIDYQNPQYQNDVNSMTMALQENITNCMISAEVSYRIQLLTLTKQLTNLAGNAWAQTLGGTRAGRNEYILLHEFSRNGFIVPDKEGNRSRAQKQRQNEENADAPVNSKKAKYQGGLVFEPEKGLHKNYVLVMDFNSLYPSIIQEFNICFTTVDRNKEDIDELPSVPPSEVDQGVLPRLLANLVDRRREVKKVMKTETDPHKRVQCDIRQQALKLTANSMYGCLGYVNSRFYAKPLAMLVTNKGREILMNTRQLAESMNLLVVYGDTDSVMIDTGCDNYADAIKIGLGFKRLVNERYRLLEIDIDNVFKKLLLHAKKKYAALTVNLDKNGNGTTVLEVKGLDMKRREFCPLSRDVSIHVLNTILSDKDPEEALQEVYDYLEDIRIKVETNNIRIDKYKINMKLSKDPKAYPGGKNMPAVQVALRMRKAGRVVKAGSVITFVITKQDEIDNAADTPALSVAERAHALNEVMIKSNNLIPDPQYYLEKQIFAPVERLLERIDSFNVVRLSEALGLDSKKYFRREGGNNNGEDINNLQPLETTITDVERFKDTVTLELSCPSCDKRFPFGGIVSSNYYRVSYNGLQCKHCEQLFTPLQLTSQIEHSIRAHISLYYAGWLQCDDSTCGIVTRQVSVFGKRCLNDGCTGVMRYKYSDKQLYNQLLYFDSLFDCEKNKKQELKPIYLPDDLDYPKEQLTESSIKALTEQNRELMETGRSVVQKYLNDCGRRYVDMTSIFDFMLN
Chain of UniProt Q09312 (whole entry, looked up): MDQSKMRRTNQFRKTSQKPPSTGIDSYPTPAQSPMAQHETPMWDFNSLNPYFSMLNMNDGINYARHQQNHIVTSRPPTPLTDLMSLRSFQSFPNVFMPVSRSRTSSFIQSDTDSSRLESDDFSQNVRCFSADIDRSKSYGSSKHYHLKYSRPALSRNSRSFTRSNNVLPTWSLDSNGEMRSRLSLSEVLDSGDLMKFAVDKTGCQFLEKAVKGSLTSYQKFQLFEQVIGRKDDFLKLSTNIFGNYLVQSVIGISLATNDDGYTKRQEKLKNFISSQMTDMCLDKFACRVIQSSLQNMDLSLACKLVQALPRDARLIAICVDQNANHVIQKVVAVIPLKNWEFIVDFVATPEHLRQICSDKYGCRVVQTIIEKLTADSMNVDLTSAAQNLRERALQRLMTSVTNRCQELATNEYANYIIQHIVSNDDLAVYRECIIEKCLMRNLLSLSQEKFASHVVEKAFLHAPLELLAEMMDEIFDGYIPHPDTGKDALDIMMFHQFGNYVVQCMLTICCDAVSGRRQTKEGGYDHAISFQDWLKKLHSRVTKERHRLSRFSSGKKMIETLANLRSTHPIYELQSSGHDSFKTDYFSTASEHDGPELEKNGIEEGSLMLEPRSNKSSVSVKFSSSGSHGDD
Chain of UniProt P46957 (whole entry, looked up): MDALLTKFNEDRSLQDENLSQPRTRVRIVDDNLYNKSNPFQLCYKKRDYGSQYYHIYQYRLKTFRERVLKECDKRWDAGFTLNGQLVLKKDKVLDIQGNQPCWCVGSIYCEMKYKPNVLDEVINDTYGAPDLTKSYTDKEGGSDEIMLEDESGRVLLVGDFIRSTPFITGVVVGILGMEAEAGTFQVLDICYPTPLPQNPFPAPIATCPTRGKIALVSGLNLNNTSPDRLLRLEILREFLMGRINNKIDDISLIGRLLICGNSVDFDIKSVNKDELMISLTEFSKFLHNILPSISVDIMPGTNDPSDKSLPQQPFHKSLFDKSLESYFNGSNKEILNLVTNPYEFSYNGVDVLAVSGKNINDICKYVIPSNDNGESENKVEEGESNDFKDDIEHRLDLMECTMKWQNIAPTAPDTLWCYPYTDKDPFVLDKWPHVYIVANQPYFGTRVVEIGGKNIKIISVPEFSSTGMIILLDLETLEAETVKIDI
Chain of UniProt O43491 (whole entry, looked up): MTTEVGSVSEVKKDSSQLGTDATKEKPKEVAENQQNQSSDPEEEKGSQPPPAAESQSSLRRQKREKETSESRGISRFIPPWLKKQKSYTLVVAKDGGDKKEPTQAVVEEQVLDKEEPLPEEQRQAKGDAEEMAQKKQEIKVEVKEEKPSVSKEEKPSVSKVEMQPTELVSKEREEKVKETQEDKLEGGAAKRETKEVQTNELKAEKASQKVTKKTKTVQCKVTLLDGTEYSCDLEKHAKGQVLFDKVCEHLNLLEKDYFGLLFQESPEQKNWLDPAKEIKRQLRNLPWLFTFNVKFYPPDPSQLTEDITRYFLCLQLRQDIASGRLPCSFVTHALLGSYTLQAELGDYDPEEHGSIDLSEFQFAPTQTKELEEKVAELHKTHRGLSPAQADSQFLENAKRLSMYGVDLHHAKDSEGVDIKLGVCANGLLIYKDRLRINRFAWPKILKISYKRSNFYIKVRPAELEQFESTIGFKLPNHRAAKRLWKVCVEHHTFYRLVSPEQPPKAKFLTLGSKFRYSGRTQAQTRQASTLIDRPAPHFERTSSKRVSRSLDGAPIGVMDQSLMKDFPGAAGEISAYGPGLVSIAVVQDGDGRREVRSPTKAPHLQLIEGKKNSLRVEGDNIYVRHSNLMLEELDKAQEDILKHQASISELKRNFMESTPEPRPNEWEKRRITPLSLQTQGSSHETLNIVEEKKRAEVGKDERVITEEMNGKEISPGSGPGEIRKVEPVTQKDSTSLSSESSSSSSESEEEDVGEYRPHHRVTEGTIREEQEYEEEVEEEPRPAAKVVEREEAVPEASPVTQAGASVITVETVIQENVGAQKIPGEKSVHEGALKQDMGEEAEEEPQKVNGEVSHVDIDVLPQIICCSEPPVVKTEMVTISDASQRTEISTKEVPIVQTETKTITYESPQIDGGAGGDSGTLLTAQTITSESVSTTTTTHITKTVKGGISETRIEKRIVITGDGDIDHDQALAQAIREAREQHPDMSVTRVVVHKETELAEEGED
Chain of UniProt P15436 (whole entry, looked up): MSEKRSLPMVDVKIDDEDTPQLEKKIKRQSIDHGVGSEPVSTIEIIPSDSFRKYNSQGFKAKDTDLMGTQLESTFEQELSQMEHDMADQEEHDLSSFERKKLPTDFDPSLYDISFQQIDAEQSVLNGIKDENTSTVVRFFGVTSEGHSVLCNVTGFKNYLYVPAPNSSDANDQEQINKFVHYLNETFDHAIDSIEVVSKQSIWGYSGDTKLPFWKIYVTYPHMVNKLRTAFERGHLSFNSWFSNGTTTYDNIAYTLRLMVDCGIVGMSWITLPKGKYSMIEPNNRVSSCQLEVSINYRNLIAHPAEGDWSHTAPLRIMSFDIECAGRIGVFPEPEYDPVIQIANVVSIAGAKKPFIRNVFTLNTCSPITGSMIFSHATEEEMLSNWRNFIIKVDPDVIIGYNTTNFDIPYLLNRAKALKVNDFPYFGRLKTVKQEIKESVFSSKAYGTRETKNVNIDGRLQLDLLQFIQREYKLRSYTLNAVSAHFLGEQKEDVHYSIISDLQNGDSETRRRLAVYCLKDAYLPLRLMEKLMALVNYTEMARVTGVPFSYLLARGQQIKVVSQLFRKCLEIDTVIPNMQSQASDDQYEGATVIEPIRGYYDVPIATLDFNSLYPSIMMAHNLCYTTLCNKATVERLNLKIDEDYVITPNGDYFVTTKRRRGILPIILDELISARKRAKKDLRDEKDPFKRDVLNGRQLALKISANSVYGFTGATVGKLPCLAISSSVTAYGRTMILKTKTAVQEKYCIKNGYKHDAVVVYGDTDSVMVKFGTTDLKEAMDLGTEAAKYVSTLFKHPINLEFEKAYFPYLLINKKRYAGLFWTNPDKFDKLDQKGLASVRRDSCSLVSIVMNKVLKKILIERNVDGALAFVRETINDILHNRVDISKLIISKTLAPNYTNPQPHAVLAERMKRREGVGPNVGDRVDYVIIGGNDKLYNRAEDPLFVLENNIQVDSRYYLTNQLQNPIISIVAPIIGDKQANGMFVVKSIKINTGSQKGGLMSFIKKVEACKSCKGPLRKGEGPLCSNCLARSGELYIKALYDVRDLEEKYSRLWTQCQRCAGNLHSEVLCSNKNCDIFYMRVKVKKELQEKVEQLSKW
Chain of UniProt O43915 (whole entry, looked up): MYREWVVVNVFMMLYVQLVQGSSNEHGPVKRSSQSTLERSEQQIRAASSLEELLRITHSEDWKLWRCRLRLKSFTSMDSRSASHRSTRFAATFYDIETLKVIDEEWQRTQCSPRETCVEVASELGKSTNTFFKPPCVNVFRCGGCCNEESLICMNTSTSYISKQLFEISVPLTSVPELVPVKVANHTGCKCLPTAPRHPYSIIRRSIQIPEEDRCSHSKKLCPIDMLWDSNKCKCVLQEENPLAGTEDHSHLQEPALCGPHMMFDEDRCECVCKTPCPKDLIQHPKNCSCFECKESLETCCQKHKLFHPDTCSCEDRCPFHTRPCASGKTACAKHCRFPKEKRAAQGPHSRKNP

`B1 (Arc)`: binding “binds” (tau 2N4R, phosphorylated (Homo sapiens, UniProt P10636-8); pull-down).
For `FAEKFKEAVKDYFAKFWDPAAEKLKEAVKDYFAKLWD (reversed nanodisc peptide NSPr)`, binding read “binds” (SOAT1 (Homo sapiens, UniProt P35610); native gel; peptide).
Under binding, `B2 (gld-3 860-949)` is recorded as “binds” (fbf-2 164-575 (Caenorhabditis elegans, UniProt Q09312); native gel EMSA).
For `GSGAGKETEC`, the binding intensity was -0.0753 (human MAGI1-3/6 PDZ construct (MBP fusion); automated holdup; peptide, crude extract; concentration not given, uncorrected, unit not given; reference: biotin control resin, higher = stronger binding).
`RIE1 (Arabidopsis thaliana, UniProt Q8GUU2)` — result for binding: “binds” (ACS7 (Arabidopsis thaliana, UniProt Q9STR4); pull-down; 2 h, 4 °C).
For `FGA (Homo sapiens, UniProt P02671)`, cross-linked residues read “K476 to K681” (CTNNA3 (Homo sapiens, UniProt Q9UI47); cross-linking MS; with: DSSO).
Under binding, `B3 (TIM9 1-87)` is recorded as “binds” (TIM10 (Saccharomyces cerevisiae, UniProt P87108); SEC).
`B4 (Pri1)`: binding “binds” (POL1 (Saccharomyces cerevisiae, UniProt P13382); mass photometry).
For `B5 (TFAM 43-245)`, binding read “binds” (POLRMT 43-1230 (Homo sapiens, UniProt O00411); cryo-EM).
For `B6 (PSMG4 1-123)`, binding read “binds” (PSMA7 (Homo sapiens, UniProt O14818); cryo-EM).
`VTI1 (Saccharomyces cerevisiae, UniProt Q04338)` — result for binding: “binds” (TLG1 (Saccharomyces cerevisiae, UniProt Q03322); pull-down).
For `KPGKGSETVV`, the binding intensity was 0.128 (human SCRIB PDZ3-4 tandem (MBP fusion); automated holdup; peptide, crude extract; concentration not given, uncorrected, unit not given; reference: biotin control resin, higher = stronger binding).
`RVB1 (Saccharomyces cerevisiae, UniProt Q03940)`: binding “binds” (SWR1 (Saccharomyces cerevisiae, UniProt Q05471); cryo-EM).
`B7` — result for binding: “binds” (MDM4 170-260 (Homo sapiens, UniProt O15151); NMR titration).
`B8 (KAT7 364-473)`: binding “binds” (KAT8 (Homo sapiens, UniProt Q9H7Z6); pull-down).
Under binding, `B9 (CCDC32 L78A/L81A/K83A/K84A)` is recorded as “binds” (AP-2 α/σ2 (Mus musculus); pull-down).
`colistin` has an MIC of no more than 0.5 µg/mL (Enterobacter cloacae; broth microdilution; clinical isolate RKI-No_136/15).
For `POL31 (Saccharomyces cerevisiae, UniProt P46957)`, binding read “binds” (POL3 (Saccharomyces cerevisiae, UniProt P15436); mass photometry).
`B10 (ranibizumab Fab)` — result for binding: “no binding” (VEGFD (Homo sapiens, UniProt O43915); SPR; Fab).
For `B11 (NUP60 200-318)`, binding read “binds” (MLP1 382-620 (Saccharomyces cerevisiae, UniProt Q02455); pull-down).
`spt16 (Schizosaccharomyces pombe, UniProt O94267)`: binding “binds” (abo1 (Schizosaccharomyces pombe, UniProt O14114); native gel).
`GSYPRPRPRPRPRPR (poly-PR (PR)6)`: binding “binds” (NPM1 (Homo sapiens, UniProt P06748); droplet dissolution, solution turbidity; peptide).
`B12 (PBXIP1 443-561)`: binding “binds” (MAPK3 (Homo sapiens, UniProt P27361); pull-down).
`B13 (lpxC 1-305)` — result for binding: “binds” (lapB 21-389 H181R (Escherichia coli, UniProt P0AB58); pull-down).
`RRRRKRVNTKRSSRAFRAHLRAPLKGNCTHPEDMKLCTVIMKSNGSFPVN (DRD2 217-266 (Homo sapiens, UniProt P14416))`: binding “binds” (EPB41L2 939-1005 (Homo sapiens, UniProt O43491); ITC).
For `B14 (SNAPC3)`, binding read “binds” (SNAPC4 1-505 (Homo sapiens, UniProt Q5SXM2); cryo-EM).

Repeated from above:
Under binding, `B3 (TIM9 1-87)` is recorded as “binds” (TIM10 (Saccharomyces cerevisiae, UniProt P87108); SEC).
For `B14 (SNAPC3)`, binding read “binds” (SNAPC4 1-505 (Homo sapiens, UniProt Q5SXM2); cryo-EM).
`spt16 (Schizosaccharomyces pombe, UniProt O94267)`: binding “binds” (abo1 (Schizosaccharomyces pombe, UniProt O14114); native gel).
